Results pooled from the literature.
Each line is one published result; not all experiments were run side by side. Several values in a cell are separate wells, animals, samples, runs or records.
Target: RAC-gamma serine/threonine-protein kinase (AKT3, Homo sapiens, UniProt Q9Y243)

| Structure (SMILES) | effect on | action | method | concentration | relative to | endpoint | result |
| --- | --- | --- | --- | --- | --- | --- | --- |
| Nc1ncc(-c2cc(-c3cnn(CC(F)(F)F)c3)ncc2F)nc1C(=O)NC1CNCC(F)C1 (centres unmarked) | enzyme activity | – | – | 1 µM | DMSO control | remaining activity | 100% |
| CC(C)=CC1OC(C)(C)C2C=C3C(=O)C(Cl)=CC(O)C3C3C(O)C4OC4C(=O)C132 (centres unmarked) | cell-free assay | – | competition with immobilised ligand | 10 µM | – | remaining binding | 92% |
| CCN1CCN(Cc2ccc(C(=O)Nc3ccc(C)c(NCc4cnc5[nH]ccc5c4OC)c3)cc2C(F)(F)F)CC1 | binding | – | competition with immobilised ligand | 1 µM | – | remaining binding | 100% |
| CNC1C[S+]2CC[S+]3CC[S+](C1)[Ru-4]321([N]=C=S)[n]2c3ccc(OC)cc3c3c4c(c5cc(F)c[n+]1c5c32)C(=O)NC4=O (centres unmarked) | – | – | KinomeScan | 0.1 µM | untreated | remaining binding | 100% |
| COc1cc(Nc2nccc(-c3cnn4nc(OC)ccc34)n2)cc(C(F)(F)F)c1 | binding | – | competition with immobilised ligand | 1 µM | – | remaining binding | 100% |
| COCC12C(=O)NC3C4(C(OC)CC1O)C1CC5(O)C(OC)C(O)C(OC(C)=O)(C1C5OC(=O)c1ccccc1)C3(O)C(OC)C24 (centres unmarked) | kinase activity | inhibitor | ProQinase kinase profiling | 25 µM | control | remaining activity | 112% and 90% |
| C=CC(=O)Nc1cccc(-c2cnc3[nH]cc(C(=O)NC(C)(C)C)c3n2)c1 | kinase activity | – | – | 0.1 µM | – | inhibition | 0% and -1% |
| CN1CC[C@@H](COc2cnc(C#N)cc2-c2ccn3nc(NC(=O)C4CC4)cc3c2)C1 | enzyme activity | inhibitor | – | 1 µM | – | inhibition | 6% |
| NC(=O)[C@@H](O)C[C@H]1CCc2sc3ncnc(O[C@H]4CC[C@H](N5CCOCC5)CC4)c3c21 | enzyme activity | inhibitor | – | 10 µM | – | inhibition | 4% |
| Cc1cccc(O[C@H]2CCC[C@@H](C(C)CNCc3ccncc3)C2)c1 (relative stereo) | enzyme activity | inhibitor | – | 10 µM | – | inhibition | -8% |
| COc1c(Cl)cccc1Nc1c(-c2ccncc2C#C[C@@]2(C)CCCN2C(=O)/C=C/CN(C)C)[nH]c2c1C(=O)NCC2 | binding | – | competition with immobilised ligand | 3 µM | – | remaining binding | 96% |
| Nc1ncc2c(n1)-c1c([nH]c3ccc(C4=CCOCC4)cc13)CCC2 | binding | – | competition with immobilised ligand | 1 µM | – | remaining binding | 54% |
| C=CC(=O)N1Cc2nc(-c3cc(-c4cc(Cl)cnc4Cl)c(F)cc3F)n(-c3ccncn3)c2C1 | cell-free assay | inhibitor | – | 1 µM | – | inhibition | 8.3% |
| COc1c(OCCCN2CCOCC2)ccc2c1N=C(NC(=O)c1cnc(N)nc1)N1CCN=C21 | kinase activity | inhibitor | – | 1 µM | untreated control | remaining activity | 89% |
